Measured values pooled from the literature.
“And” joins repeats or separate records; there may be more than shown. ± marks the error that the study gave.

`O=C(C[Se]C(=O)C12CC3CC(CC(C3)C1)C2)Nc1cccc(C(F)(F)F)c1`: “mean growth percent” -57.9% (NCI60 non-small-cell lung subpanel; cell growth; 10 µM, 48 h, one-dose).
The efficacy of `O=C(NCc1cc(F)cc(F)c1)[C@@]1(O)CCN(c2ccc3[nH]ccc3c2)C1=O` is reported as 50% (MAXF 1384 breast cancer cells; colony formation, soft agar clonogenic; concentration not given).
`[2H]C([2H])([2H])C1(C([2H])([2H])[2H])NC(=O)N(c2ccc(F)c(C(C)(F)F)c2)C1=O` — result for mRNA level: “no effect” (LAPC4; measured: KLK3, FKBP5, ZFP36L1; up to 10 µM, added: DHT).
`CC(C)c1ccc(N(C)c2ccc3c(c2)OCC[C@H]3CNc2cnccc2C(=O)O)cc1` gave an IC50 of ≥ 10000 nM (Lu-99; cell viability, CellTiter-Glo; 7 days).
For `O=C(C[Se]C(=O)c1cc2ccccc2s1)Nc1cccc(C(F)(F)F)c1`, “mean growth percent” read -83.3% (NCI60 non-small-cell lung subpanel; cell growth; 10 µM, 48 h, one-dose).
With `COC(=O)c1cc(NC2=NC(=O)C(=Cc3ccc(C)cc3)S2)ccc1OC(C)=O` the metabolite level was 0.36 fold change (MCF7; GC-MS, measured: 3-Aminoisobutyric acid; 1 µM; relative to: DMSO).
With `Nc1ncn([C@@H]2O[C@H](CO)[C@@H](O)[C@H]2O)c(=O)n1` the inhibition was 0% (AML blasts, primary, RUNX1-mutated; CD34+ blast expansion; 90 nM, HUVEC co-culture).
For `COC(=O)c1cc(NC2=NC(=O)C(=Cc3ccc(N(C)C)cc3)S2)ccc1OC(C)=O`, the metabolite level was -0.31 fold change (MCF7; GC-MS, measured: diacetone alcohol; 1 µM; relative to: DMSO).
With `CCN(C(=O)c1cc(F)ccc1Oc1nncnc1N1CCC2(C1)CN([C@H](CCCN(C)CCOC)C(C)C)C2)C(C)C` the GI50 was > 10 µM (SF-268; brain; 72 h).
For `CCn1nc(Cl)c2c1-c1cnc(N)c(c1)O[C@H](C)c1cc(F)ccc1-c1nn(C)cc1C2`, the Emax was 80.5% (NB1 (ALK amplification, exon 2-3 deletion); cell viability).
`COc1ccc2c(c1)c(CC(=O)[Se]CC(=O)Nc1cccc(C(F)(F)F)c1)c(C)n2C(=O)c1ccc(Cl)cc1` — result for “mean growth percent”: -91.5% (NCI60 non-small-cell lung subpanel; cell growth; 10 µM, 48 h, one-dose).
The fold regulation of `CCN(CC)CC(=O)Nc1cccc(-n2cc(-c3ccc4ccc(-c5cn(-c6cccc(NC(=O)CN(CC)CC)c6)nn5)cc4c3)nn2)c1` is reported as -1.11 (RCC4; PCR array, measured: EGF; 5 x IC50, 2 h, normoxia; relative to: untreated).
With `Cc1ccc(-n2cc(CSc3nc4ccccc4n3Cc3cn(-c4ccc(C)cc4)nn3)nn2)cc1` the viability was 12.3% (Caco-2; MTT; 125 ppm).
The mRNA level of `CCCCCCCCCCCCCCCC(=O)OCC(CSC[C@H](N)C(=O)N[C@@H](CO)C(=O)N[C@@H](CCCCN)C(=O)N[C@@H](CCCCN)C(=O)N[C@@H](CCCCN)C(=O)N[C@@H](CCCCN)C(=O)NCCCCCC(=O)N[C@@H](CCCCN)C(=O)N[C@@H](CC(C)C)C(=O)N[C@H](C(=O)N[C@@H](Cc1ccccc1)C(=O)N[C@@H](Cc1ccccc1)C(=O)N[C@@H](Cc1ccc2ccccc2c1)C(=O)O)C(C)C)OC(=O)CCCCCCCCCCCCCCC` (some centres unmarked) is reported as 4.83 FPKM and 4.18 FPKM and 5.55 FPKM (BV-2; RNA-seq, measured: Clec10a; concentration not given).
`O=[C]=[Mn-2]12(=[C]=O)(=[C]=O)[O]c3cc4c(cc3=[N+]1CCc1ccccc1)[O][Mn-2](=[C]=O)(=[C]=O)(=[C]=O)([N+]=4CCc1ccccc1)[n+]1ccc(cc1)C(=O)Nc1ccccc1NC(=O)c1cc[n+]2cc1` has a viability reduction of 21% (HEK293; MTT; 50 µM, 48 h, photolysed compound).
`CC[C@H](CO)Nc1nc(NCc2ccc(-c3ccccn3)cc2)c2ncn(C(C)C)c2n1` — result for “log2 fold change”: -2.43 (MOLT-4; tandem mass tag proteomics, measured: CCNK; 1 µM, 5 h; relative to: DMSO).
With `O=C(Nc1nnc2c1c(-c1ccc(Cl)cc1)nc1sc(=Cc3ccco3)c(=O)n12)c1ccccc1` (mixture of isomers) the cell growth was 18.2% (SR; SRB; 10 µM, NCI60 single-dose screen; relative to: untreated).
For `O=C(C[Se]C(=O)c1ccc2ccccc2c1)Nc1cccc(C(F)(F)F)c1`, the GI50 was 1.74 µM (NCI60 ovarian subpanel; cell growth, inhibitor; five-dose).
With `CNS(=O)(=O)Nc1nccc(Cc2c(C)c3ccc(Oc4ncccc4F)cc3oc2=O)c1F` the IC50 was 124 nM (Lu-99; cell viability; 7 days).
`CN1CCCNC(=O)c2cccc(c2)C(=O)NCCCN(C)CCCNc2cccc3c2C(=O)c2cccc(c2C3=O)NCCC1`: “log2 fold change” -2.52 (SAS; RNA-Seq, measured: NFKB1 mRNA; 1 µM, 24 h; relative to: untreated cells).
With `O=CCNCCOn1c(=O)n(OCCNCCO)c(=O)n(OCCNCCOn2c(=O)n(OCCNCCO)c(=O)n(OCCNCCO)c2=O)c1=O` the viability was 17.2% (A549; cell growth or viability, MTT; 200 µg/mL, 24 h).
`COC1CN([C@H]2CC[C@H]([C@@]3(C)Oc4c(Cl)cc(C(=O)NCc5c(SC)cc(C)[nH]c5=O)c(C)c4O3)CC2)C1` gave a GI50 of > 10 µM (J82; cell growth or viability, ATP luminescence; 6 days).
`Cc1nc(=S)[nH]c(C)c1/N=N/c1nnc(S)[nH]1` has an inhibition of 12.2 ± 0.303% (Vero; cell viability, MTT; 0.625 µg/mL).
For `CN(C)CCN1CCN(c2ccc3nc(-c4ccc5nc(-c6ccc(C(F)(F)F)cc6)[nH]c5c4)[nH]c3c2)CC1`, the growth percent was 67.8% (SF-268; SRB; 10 µM, 48 h).
`Cn1ncc2cc(-c3cncc(Cl)c3N3CCC4(CCNC4=O)CC3)ccc21` — result for “log2 fold change”: 2.44 (LS174T; gene expression, microarray, measured: NFE2L2 mRNA; concentration not given, 24 h; relative to: untreated cells).
`Cc1ccc([N+](=O)[O-])cc1S(=O)(=O)N(C)/N=C/c1cnc2ccc(Br)cn12` gave a PI-stained cells of 29.5% (HuT78; 200 nM).
The viability of `CSC(=S)N/N=C(\C)c1ccc(Nc2nnc(-c3ccc(Cl)cc3)c3ccccc23)cc1` is reported as 92.9% (MCF7; cell growth or viability, MTT; 78 nM, 24 h).
`CC(=O)Oc1ccccc1C(=O)[Se]CC(=O)Nc1cccc(C(F)(F)F)c1` — result for “mean growth percent”: -25.5% (NCI60 ovarian subpanel; cell growth; 10 µM, 48 h, one-dose).
`Cc1ncsc1-c1ccc(C(C)NC(=O)C2CC(O)CN2C(=O)C(NC(=O)CCCCCCCCCCN2CCCC(Nc3ncc(Cl)c(Nc4ccccc4S(=O)(=O)C(C)C)n3)C2)C(C)(C)C)cc1` (centres unmarked) — result for “log2 fold change”: -1.38 (22Rv1; RNA-seq, measured: NCR3LG1 mRNA; concentration not given; relative to: DMSO).
For `O=C(C[Se]C(=O)c1ccccc1Nc1cccc(C(F)(F)F)c1)Nc1cccc(C(F)(F)F)c1`, the mean TGI was 3.84 µM (NCI60 ovarian subpanel; total growth inhibition, inhibitor; five-dose).
`CO[C@@H]1[C@@H](OC(N)=O)[C@@H](O)[C@H](Oc2ccc3c(O)c(NC(=O)c4ccc(O)c(CC=C(C)C)c4)c(=O)oc3c2C)OC1(C)C` has a colony survival of 65.1% (HCT-116 BRCA2 wild-type; 300 µM, replicate A; relative to: untreated).
`Cc1cc(Cl)cc(-c2ccnc3cc(CN4C(=O)C5C(C4=O)C5(C)C)sc23)c1C[C@@H]1CNCCO1` (some centres unmarked): “apoptotic cells (early plus late)” 37.8% and 45.6% and 44.5% and 62.4% and 54.5% and 50% (CHP-212 parental (wild-type USP7); annexin V-PI flow cytometry; 1 µM, 48 h).

A few entries again:
`CC(=O)Oc1ccccc1C(=O)[Se]CC(=O)Nc1cccc(C(F)(F)F)c1` — result for “mean growth percent”: -25.5% (NCI60 ovarian subpanel; cell growth; 10 µM, 48 h, one-dose).
`CO[C@@H]1[C@@H](OC(N)=O)[C@@H](O)[C@H](Oc2ccc3c(O)c(NC(=O)c4ccc(O)c(CC=C(C)C)c4)c(=O)oc3c2C)OC1(C)C` has a colony survival of 65.1% (HCT-116 BRCA2 wild-type; 300 µM, replicate A; relative to: untreated).
